Measured values collected from several papers.
Compare with care: the assays were run in different laboratories. Values joined by “and” are separate records of one study, mostly repeats; a detail may differ. ± gives the spread as reported. Values after ≈ are worked out from the molar mass of the structure shown.

| Structure (SMILES) | cell line | assay | system | setting | scale | measurement | value |
| --- | --- | --- | --- | --- | --- | --- | --- |
| Cn1nccc1Nc1nccc(-c2cc3c(s2)C(C)(C)N(CCN2CCOCC2)C3=O)n1 | HCT116 | IncuCyte | – | concentration not given, 8 (unit not given) | – | PI-positive cells | 4.08 count and 3.08 count and 2.42 count |
| Oc1ccc(C2(c3ccc(O)cc3)c3ccccc3-c3ccccc32)cc1 | HepG2 spheroids | Hoechst flow cytometry | – | 0.01 µM, 96 h | – | G2 phase cells | 12.6 ± 4.07% |
| C[C@@H]1O[C@@H](O[C@@H]2C=C3CC[C@@H]4[C@H](CC[C@]5(C)[C@@H](c6ccc(=O)oc6)CC[C@]45O)[C@@]3(C)CC2)[C@H](O)[C@H](O)[C@H]1O | human iPSC cardiomyocytes | plate-normalised | – | concentration not given, hit retest | relative to: vehicle controls, SDs below control | MyBP-C level change | 13 SD |
| COP(=O)(OC)OC=C(Cl)Cl | MDA-MB-231 BAX/BAK siRNA knockdown | cell viability, CellTiter-Glo | – | – | direction not given | Z score | 1.66 |
| Cc1cc(C(C)(C)c2ccc(O)c(C)c2)ccc1O | HepG2 spheroids | Hoechst flow cytometry | – | 0.10 µM, 96 h | – | S phase cells | 8.02 ± 2.57% |
| CC(=O)O[C@H]1CC[C@@]2(C)[C@H](CC[C@@H]3[C@@H]2CC[C@]2(C)[C@@H](C4=CC(=O)OC4)[C@@H](OC(C)=O)C[C@]32O)C1 | human iPSC cardiomyocytes | plate-normalised | – | concentration not given, hit retest | relative to: vehicle controls, SDs below control | MyBP-C level change | 11.9 SD |
| COc1cc(CCC[P+](c2ccccc2)(c2ccccc2)c2ccccc2)c(OC)c2c1OCO2.[I-] | Malme-3M | SRB | – | – | – | GI50 | -6.22 log M |
| O=C1[O][Pt]2([NH][C@@H]3CCCC[C@H]3[NH]2)[O]C1=O | LoVo resistant | MTT | – | – | relative to: resistant over parental IC50 | resistance factor | 18.3 |
| Nc1ccc(Cl)cc1 | THP-1 | pyroptotic LDH release | – | 2 µM, 40 min, together with: LPS then nigericin | – | inhibition | 15.6% |
| N.N.[Cl][Pt][Cl] | RPE-1 hTERT TP53-/- cells | – | – | uninfected, base editing screen | – | LD20 | 1 µM |
| COc1c(CCC[P+](c2ccccc2)(c2ccccc2)c2ccccc2)cc2c(c1OC)OCO2.[I-] | KM12 | SRB | – | – | – | LC50 | -4.37 log M |
| Cn1cncc1C1=CN(c2ncnc3[nH]cnc23)CCS1 | OVCAR-5 | – | – | ovarian cancer | – | CC50 | > 200 µM |
| Nc1nc(N)nc(NC2CC2)n1 | THP-1 | pyroptotic LDH release | – | 2 µM, 40 min, together with: LPS then nigericin | – | inhibition | -0.931% |
| Cn1c(CCCCCCC(=O)NO)nc2cc(N(CCCl)CCCl)ccc21 | HEK293T ATF4-FLuc reporter | ATF4 reporter gene, activator, luciferase reporter | – | – | – | EC50 | 3.75 µM |
| CC(C)N1CCC(NC2CCN(c3cccc(-c4cc5cc(F)ccc5[nH]4)c3)CC2)CC1 | OVCAR-5 | – | – | – | – | CC50 | 7.64 µM |
| O=c1cc(-c2ccccc2)oc2c(O)c(O)ccc12 | SH-SY5Y Aβ-GFP cells | Aβ aggregation inhibition, GFP folding reporter | – | – | – | EC50 | 10.7 µM |
| Nc1ncc(-c2nc(N3CCOCC3)nc(N3CCOCC3)n2)c(C(F)F)n1 | 769-P | – | – | 72 h | – | GI50 | 0.267 µM |
| C/C=C(/C)C(=O)O[C@H]1C(C)=C2[C@H]([C@@H]1OC(=O)CCCCCCC)[C@@](C)(OC(C)=O)C[C@H](OC(=O)CCC)[C@@]1(O)[C@H]2OC(=O)[C@@]1(C)O | HEK-293T | RNA-seq GSEA, item: Hallmark glycolysis | – | 500 nM, 6 h | direction not given | normalized enrichment score | 1.95 |

| Structure (SMILES) | cell line | assay | system | setting | scale | measurement | value |
| --- | --- | --- | --- | --- | --- | --- | --- |
| CC(C)[C@H](N)C(=O)N1CCC[C@H]1B(O)O | EA.hy926 CARD8 knockout | CellTiter-Glo | – | concentration not given | – | viability | 96.6% and 97% and 96.9% |
| CC(C)(O)C(Cl)(Cl)Cl | THP-1 | pyroptotic LDH release | – | 2 µM, 40 min, together with: LPS then nigericin | – | inhibition | -0.316% |
| CN1CCN(C2(CNC3CCN(c4cccc(-c5cc6cc(F)ccc6[nH]5)c4)CC3)CCC2)CC1 | KM12 | – | – | – | – | CC50 | 6.05 µM |
| Nc1ncnc2c1ncn2[C@@H]1O[C@@H]2COP(=O)(O)O[C@H]3[C@@H](O)[C@H](n4cnc5c(=O)[nH]cnc54)O[C@@H]3COP(=O)(O)O[C@H]2[C@H]1O | HFF-1 | RNA sequencing, item: Reactome R-HSA-2187338 | – | downregulated pathway | relative to: Zika virus alone | pathway fold enrichment | 5.88 |
| O=S(=O)(c1ccc(O)cc1)c1ccc(O)cc1 | HepG2 spheroids | Hoechst flow cytometry | – | 10 µM, 24 h | – | G1 phase cells | 72.8 ± 4.03% |
| CCn1cc(-c2cc(Cn3ccoc3=N)cc3c2CCN([C@@H](C)c2cc(OC)ccn2)C3=O)c(C(F)(F)F)n1 | T47D | cell growth, inhibitor | – | 120 h | – | EC50 | 0.156 µM |
| CC(C)(O/N=C(\C(=O)N[C@@H]1C(=O)N2C(C(=O)[O-])=C(C[n+]3ccccc3)CS[C@H]12)c1csc(N)n1)C(=O)O | Escherichia coli DH5α expressing KPC-180 | bacterial growth | – | – | – | MIC | 64 µg/mL (≈ 117 µM) |
| Cc1cnc2ccc3c(nc(N)n3C)c2n1 | BALB/c 3T3 | colony forming efficiency | – | 50 µM | – | colony number | 89 colonies per plate and 93 colonies per plate |
| CC(C)(C)c1cc(C=C(C#N)C#N)cc(Br)c1O | hCMEC/D3 | outcome: no effect, Western blot, item: RAGE | – | 100 µM, no insulin | – | membrane expression | no effect |
| Oc1ccc(C(c2ccc(O)cc2)(C(F)(F)F)C(F)(F)F)cc1 | HepG2 spheroids | Hoechst flow cytometry | – | 1 µM, 24 h | – | S phase cells | 7.34 ± 1.52% |
| CN1CCc2[nH]c(-c3ccnc(NC(=O)[C@@H](CC(F)F)c4ccc(F)cc4)c3)c(Nc3ccccc3)c2C1=O | MOLM-13 | mRNA level, RNA-seq, item: PSAT1 | – | 200 nM, 24 h | relative to: DMSO | log2 fold change | -3.27 |
| COc1c(C)c2c(c(O)c1C/C=C(\C)CCC(=O)O)C(=O)OC2 | SU-DHL-6 | cell proliferation | blood cancer | – | – | IC50 | 0.661 µM |
| O=C1CCP(=S)(c2ccccc2)CC1 | SW-620 | Annexin V-FITC/PI flow cytometry | – | IC50, 72 h | – | late apoptotic cells | 48.5% |
| COc1ccc([C@H]2c3[nH]c4ccc(Cl)cc4c3CCN2C(=O)Oc2ccc(Cl)cc2)cc1 | human dermal fibroblasts with PBMC | cytokine secretion, item: IL-8 | – | 0.1 µM, 48 h | – | inhibition | 44% |
| Cc1ccccc1CN1CCN(CCOC(c2ccccc2)c2ccccc2Cl)CC1 (stereo not drawn) | HEK293T ATF4-FLuc reporter | ATF4 reporter gene, activator, luciferase reporter | – | – | – | EC50 | 0.051 µM |
| CCN(CC)c1ccc(C=NNC(=O)CSc2nc3ccccc3c(=O)n2Cc2ccc(S(N)(=O)=O)cc2)c(O)c1 | Malme-3M | NCI five-dose screen | – | – | – | CC50 | > 100 µM |
| COc1ccc2c(c1)[nH]c1c(C)nccc12 | DU-145 | bisulfite pyrosequencing, item: RASSF1A promoter CpG site 32 | – | concentration not given | relative to: vehicle | methylation reduction | 0.2% |
| Cc1nn(-c2nc3ccc(Cl)c(Cl)c3[nH]2)c(O)c1C1OC(=O)c2ccccc21 (stereo not drawn) | RAW-ISG | CCK-8 | – | 3 µM | – | viability | 106% and 107% and 109% and 112% |

Some of these lines once more:
| Structure (SMILES) | cell line | assay | system | setting | scale | measurement | value |
| --- | --- | --- | --- | --- | --- | --- | --- |
| CC(C)N1CCC(NC2CCN(c3cccc(-c4cc5cc(F)ccc5[nH]4)c3)CC2)CC1 | OVCAR-5 | – | – | – | – | CC50 | 7.64 µM |
| O=c1cc(-c2ccccc2)oc2c(O)c(O)ccc12 | SH-SY5Y Aβ-GFP cells | Aβ aggregation inhibition, GFP folding reporter | – | – | – | EC50 | 10.7 µM |
| COc1c(C)c2c(c(O)c1C/C=C(\C)CCC(=O)O)C(=O)OC2 | SU-DHL-6 | cell proliferation | blood cancer | – | – | IC50 | 0.661 µM |
| CCN(CC)c1ccc(C=NNC(=O)CSc2nc3ccccc3c(=O)n2Cc2ccc(S(N)(=O)=O)cc2)c(O)c1 | Malme-3M | NCI five-dose screen | – | – | – | CC50 | > 100 µM |
